Results from different studies.
Protocols differ between the studies behind these lines.
RPS6KA6 N-terminal kinase domain: Ribosomal protein S6 kinase alpha-6, N-terminal kinase domain (RPS6KA6, Homo sapiens, UniProt Q9UK32)
Chain of UniProt Q9UK32 (whole entry, looked up): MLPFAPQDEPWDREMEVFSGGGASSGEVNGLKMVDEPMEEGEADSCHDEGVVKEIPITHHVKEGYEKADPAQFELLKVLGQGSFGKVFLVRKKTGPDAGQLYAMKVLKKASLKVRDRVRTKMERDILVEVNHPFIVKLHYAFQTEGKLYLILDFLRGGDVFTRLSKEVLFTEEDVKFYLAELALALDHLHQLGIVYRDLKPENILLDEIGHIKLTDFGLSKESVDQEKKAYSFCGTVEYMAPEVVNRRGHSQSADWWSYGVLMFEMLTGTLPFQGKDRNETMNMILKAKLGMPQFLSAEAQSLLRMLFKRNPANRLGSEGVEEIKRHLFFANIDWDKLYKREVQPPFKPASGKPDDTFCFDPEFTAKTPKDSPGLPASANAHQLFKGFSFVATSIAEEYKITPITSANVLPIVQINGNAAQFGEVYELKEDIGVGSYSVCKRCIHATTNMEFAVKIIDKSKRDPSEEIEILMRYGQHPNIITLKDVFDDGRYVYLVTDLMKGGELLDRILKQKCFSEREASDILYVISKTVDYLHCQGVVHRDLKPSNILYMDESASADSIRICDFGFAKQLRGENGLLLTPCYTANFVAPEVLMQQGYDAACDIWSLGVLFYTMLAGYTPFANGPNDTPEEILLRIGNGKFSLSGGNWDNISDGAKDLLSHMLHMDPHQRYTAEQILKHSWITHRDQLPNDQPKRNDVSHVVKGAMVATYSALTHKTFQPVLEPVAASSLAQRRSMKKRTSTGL
RPS6KA6: Ribosomal protein S6 kinase alpha-6 (RPS6KA6, Homo sapiens, UniProt Q9UK32)

C[C@@H](c1ccc(-n2cnc3c(N)ncnc32)cc1)N1CCc2nn(C)c(Cc3ccccc3)c2C1=O  remaining binding (RPS6KA6 N-terminal kinase domain; KINOMEscan; 0.1 µM; baseline: DMSO control): 50%
C=CC(=O)N1CCC(COCC(=O)N2CCN(c3nc(-c4cnc(N)nc4C(F)F)nc(N4CCOC[C@@H]4C)n3)CC2)CC1  remaining binding (Ribosomal protein S6 kinase alpha-6, C-terminal kinase domain (RPS6KA6, Homo sapiens, UniProt Q9UK32); KINOMEscan; 1 µM; baseline: DMSO control): 84%
CCCOc1ccc(OC)c(F)c1C(=O)c1ccc(C(=O)N[C@@H]2CNC[C@H]2NC(=O)c2ccc3[nH]ncc3c2)cc1  remaining activity (RPS6KA6; enzyme activity; 10 µM): 16%
C=CC(=O)N1CCC(C(=O)NCC(=O)N2CCN(c3nc(-c4cnc(N)nc4C(F)F)nc(N4CCOCC4)n3)CC2)CC1  remaining binding (RPS6KA6 N-terminal kinase domain; KINOMEscan; 1 µM): 100%
Cc1cc(Nc2cc(N3CCN(C)CC3)nc(Sc3ccc(NC(=O)C4CC4)cc3)n2)[nH]n1  remaining activity (RPS6KA6; kinase activity, KinaseProfiler; 0.03 µM, species human; baseline: control): 103%
CNc1ncc2c(/C=C/C(=O)N3CCC(OC)CC3)nn(Cc3cccc(C(F)(F)F)c3)c2n1  remaining activity (RPS6KA6; kinase activity, inhibitor; 1 µM; baseline: untreated control): 93%
COc1cc(F)ccc1-c1ncnc(Nc2cccc(C[S@](C)(=N)=O)c2)n1  remaining activity (RPS6KA6; kinase activity; 10 µM, added: 10 µM ATP): 106%
CCN(CC)c1ccc(C2=NNC(=O)CC2C)cc1[N+](=O)[O-] (centres unmarked)  remaining activity (RPS6KA6; enzyme activity, inhibitor; 10 µM; baseline: vehicle): 82%

A few entries again:
C=CC(=O)N1CCC(COCC(=O)N2CCN(c3nc(-c4cnc(N)nc4C(F)F)nc(N4CCOC[C@@H]4C)n3)CC2)CC1  remaining binding (Ribosomal protein S6 kinase alpha-6, C-terminal kinase domain (RPS6KA6, Homo sapiens, UniProt Q9UK32); KINOMEscan; 1 µM; baseline: DMSO control): 84%
